Measured values from different studies.
Numbered parts are unrelated; each lists some results of a single study. Substitutions count along the parent as printed.

Series 1
Target: Ras GTPase-activating protein-binding protein 1, RRM domain (G3BP1, Homo sapiens, UniProt Q13283)
Chain of UniProt Q13283 (whole entry, looked up): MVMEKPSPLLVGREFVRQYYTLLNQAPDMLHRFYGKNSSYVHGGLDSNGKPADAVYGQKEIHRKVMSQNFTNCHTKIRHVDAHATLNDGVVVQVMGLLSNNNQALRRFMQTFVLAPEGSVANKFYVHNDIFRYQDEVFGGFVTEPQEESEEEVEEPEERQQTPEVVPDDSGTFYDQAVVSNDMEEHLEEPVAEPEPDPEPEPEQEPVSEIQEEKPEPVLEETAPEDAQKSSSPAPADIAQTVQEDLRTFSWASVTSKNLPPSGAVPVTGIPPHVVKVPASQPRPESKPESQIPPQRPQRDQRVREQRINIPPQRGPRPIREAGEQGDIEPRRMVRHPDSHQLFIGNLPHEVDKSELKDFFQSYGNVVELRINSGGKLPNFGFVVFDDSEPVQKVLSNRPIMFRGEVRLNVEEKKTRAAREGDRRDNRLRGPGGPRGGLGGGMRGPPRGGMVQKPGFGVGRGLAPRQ
Method: RNA Bind-n-Seq
Form: RNA
Matrix: in vitro
Tested at: 1 µM
Setting: whole 134-nt RNA, ends assumed
With: 150 mM KCl
Reference: input library
Reading: higher = stronger binding
Shared flanks, not repeated: GGGAGUUCUACAGUCCGACGAUC … UGGAAUUCUCGGGUGUCAAGG
| Strand | log2 enrichment |
| --- | --- |
| CUCAAGUCCUGUGCUACACAUCGUAUGUACCGAAUCGGAGGUGGUUUUUUUGGAAAGUAUUAUGUUACGCCGUUCGGAUCUGCACUUCCA | -0.278 |
| UCAAGUCCUGUGCUACACAUCGUAUGUACCGAAUCGGAAAAGGAAAAGGAAAAGGAAAGUAUUAUGUUACGCCGUUCGGAUCUGCACUUC | -0.0814 |
| CAAGUCCUGUGCUACACAUCGUAUGUACCGAAUCGGGGUUUGGUUUGGGUUUGGGAAAGUAUUAUGUUACGCCGUUCGGAUCUGCACUUC | -0.323 |
| AGUCCUGUGCUACACAUCGUAUGUACCGAAUCGGUUUUUGGUUUUUGGAAAAAAAGGAAAGUAUUAUGUUACGCCGUUCGGAUCUGCACU | -0.0442 |
| AGUCCUGUGCUACACAUCGUAUGUACCGAAUCGGGUUUUUGGGUGGGUUUUUUUGGGAAAGUAUUAUGUUACGCCGUUCGGAUCUGCACU | 0.323 |
| AGUCCUGUGCUACACAUCGUAUGUACCGAAUCGGGUUUUUGGGUUUUUGGUUUUUGGGAAAGUAUUAUGUUACGCCGUUCGGAUCUGCAC | -0.256 |
| GUCCUGUGCUACACAUCGUAUGUACCGAAUCGGGUUUUUGGGAAAAAAAGGGUUUGGGAAAGUAUUAUGUUACGCCGUUCGGAUCUGCAC | -0.0806 |
| UGGGAGGUGGAUUUUGUUUAUUUUUUUAGCUCAUUUCCAGGGGUGGGAAUUUUUUUUUAAUAUGUGUCAUGAAUAAAGUUGUUUUUGAAG | 2.14 |
| AGUCCUGUGCUACACAUCGUAUGUACCGAAUCAAACCCAAACCCAAAUUUUUUUAAAAAAGUAUUAUGUUACGCCGUUCGGAUCUGCACU | -0.505 |
| GUCCUGUGCUACACAUCGUAUGUACCGAAUCGGGUUUUUGGGUUUGGGAAAAAAAGGGAAAGUAUUAUGUUACGCCGUUCGGAUCUGCAC | -0.146 |
| CUCAAGUCCUGUGCUACACAUCGUAUGUACCGAAUCGGCCGGCCGGGGCCGGGGAAAGUAUUAUGUUACGCCGUUCGGAUCUGCACUUCC | -0.457 |
| CCUGUGCUACACAUCGUAUGUACCGAAUCGGAAAAAAAGGGGAAAAAAAGGAAAAAAAGGGAAAGUAUUAUGUUACGCCGUUCGGAUCUG | 0.0687 |
| CCUCAAGUCCUGUGCUACACAUCGUAUGUACCGAAUCGGGUGGGUGGUGGGGAAAGUAUUAUGUUACGCCGUUCGGAUCUGCACUUCCAG | 0.281 |
| UUCACUCUUUGAAGGAACGUGGUACUUAGUUAGGGUGGAUGAAAAGCACAGAAGAACUUACGCUCGGCGUCCCACUCCAAAUGAUGACAC | 0.0706 |

Series 2
Target: Interferon regulatory factor 7, full length, phosphomimetic (IRF7, Homo sapiens, UniProt Q92985, residues 1-503, S471D/S472D/S475D/S476D/S477D/S483D/S484D/S487D)
Chain of UniProt Q92985 (whole entry, unmodified, looked up): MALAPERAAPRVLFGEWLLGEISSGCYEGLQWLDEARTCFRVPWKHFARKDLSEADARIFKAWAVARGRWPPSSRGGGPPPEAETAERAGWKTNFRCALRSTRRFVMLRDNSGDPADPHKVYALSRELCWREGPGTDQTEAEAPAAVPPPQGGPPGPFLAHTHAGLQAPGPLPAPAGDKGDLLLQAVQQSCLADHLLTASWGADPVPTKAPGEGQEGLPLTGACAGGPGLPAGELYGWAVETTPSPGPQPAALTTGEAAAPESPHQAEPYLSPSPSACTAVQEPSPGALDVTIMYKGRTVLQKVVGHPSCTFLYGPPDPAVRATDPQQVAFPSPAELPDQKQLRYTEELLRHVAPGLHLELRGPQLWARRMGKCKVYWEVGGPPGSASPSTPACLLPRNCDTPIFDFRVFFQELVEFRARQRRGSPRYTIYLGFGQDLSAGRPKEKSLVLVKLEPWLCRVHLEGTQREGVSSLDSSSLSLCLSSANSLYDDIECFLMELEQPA
Method: protein-binding microarray
Form: double-stranded DNA, one strand shown
Matrix: in vitro
Tested at: 2200 nM top
Setting: 60-bp whole probe
With: salmon DNA 0.4 mg/ml
Reference: random background probes
Reading: higher = stronger binding
Shared flanks, not repeated: GCCTAGCAC … GTCTTGATTCGCTTGACGCTGCTG
| Strand | fitted relative affinity [z-score] |
| --- | --- |
| GTATATATGTGTATATATAAGTGCTAG | 0.797 |
| GACGGTCTCCTTTTCCTGAAGTGCTAG | 1.3 |
| TTATATTTCAGACTGGATTAGTGCTAG | 0.437 |
| TTAGATCTCAGGCTCGATTAGTGCTAG | -0.112 |
| GACGATCTCGGTCTCGAGACGTGCTAG | 0.153 |
| GACGGTATCGACTTTCGGGAAGTGCTA | 1.58 |
| TTAGGTGTCGGTCTCGGTTAGTGCTAG | 0.308 |
| GACGATCTCAGTTTCGAGAAGTGCTAG | 1.56 |
| TTAGTTTTCAGTTCCGATTAGTGCTAG | 4.9 |
| GACGATATCAGTTTCGCGACGTGCTAG | 1.99 |
| GACGATCTCAGACTGGATACGTGCTAG | 0.141 |
| TTAGGACTGGGGGCTGGGTTAGTGCTA | 0.114 |
| GTCGAACTGAGTTTCGAGACGTGCTAG | 2.1 |
| TCAATTTTGTGTCTGGGACTGTGCTAG | 0.776 |
| GACGGGATCGGGTATCGGGACGTGCTA | -0.708 |
| GACGAACTGGGTATCGGGACGTGCTAG | -0.345 |

Series 3
Substance: PhoQ, residues 284 288 289 292 302 303 SLGVVW
Method: Sort-seq
Refers to: YFP reporter
Matrix: E. coli
Setting: PhoQ-PhoP variant library
With: 10 µM Mg2+
Reference: high Mg2+ state
Reading: higher = stronger signaling
| target | fold induction |
| --- | --- |
| PhoP, residues 12 14 15 18 19 ICWRQ (Escherichia coli, UniProt P23836) | 25.8 |
| PhoP, residues 12 14 15 18 19 VHTVL (Escherichia coli, UniProt P23836) | 19 |
| PhoP, residues 12 14 15 18 19 TQCLL (Escherichia coli, UniProt P23836) | 6.06 |

Series 4
Target: CCNE2, cyclin fold, Cln2 fusion (human)
Method: yeast growth competition, sequencing
Matrix: yeast
Setting: weak parent motif
Reference: not given
Reading: higher = stronger binding
Parent: FZR1 docking peptide (human); QDYERRLLRQIVI
| Change | normalised enrichment score |
| --- | --- |
| Q10A | 0.144 |
| I11A | 0.713 |
| L7A | 0.72 |
| L8A | -0.133 |
| R5A L7A | 0.163 |
| R5K | 0.499 |
| V12A | 0.845 |
| L8F | 0.653 |
| Y3A | 0.596 |
| E4A | 1.24 |

Series 5
Target: RNA binding protein fox-1 homolog 2, RRM domain, GST-SBP tag (RBFOX2, Homo sapiens, UniProt O43251-10, residues 100-194)
Method: RNA Bind-n-Seq
Form: RNA
Matrix: in vitro
Tested at: 365 nM
Setting: natural RNA segment, single round, ends assumed
Reference: no-protein control
Reading: higher = stronger binding
Shared flanks, not repeated: GGGAGUUCUACAGUCCGACGAUC … UGGAAUUCUCGGGUGCCAA
Residues (chain): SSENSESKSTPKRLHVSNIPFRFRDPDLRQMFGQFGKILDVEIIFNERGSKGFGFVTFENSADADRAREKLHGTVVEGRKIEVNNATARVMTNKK
| Strand | RBNS enrichment (R) |
| --- | --- |
| ACCACCUGCCACCAAGGUUUCCUCUCUUCCCCCAGGACCUGGGCAGAGCAGGCAUGAGCUGGGCUGUGGUGCAGAGCAAGCAGACCCAGCCACACUGCUCAAAGGUCCCU | 0.649 |
| CUGCAUUAUGUGUACAGUAUUGGACAAAGGAUUUUAUUCAUUUUGUUGCAUUAUUUUGAAUAUUGUCUUUUCAUUUUAAUAAAGUUAUAAUACUUAUUUAUGAUACCAUU | 1.12 |
| UGGCUAUCUUUAAGAAAGAUGAUAUAUCCUAGUUUUGAAAGUAAUUUUCUUUUUUCUUUCUAGCAUUUGAUGUCUAAAUAAUUUUGGACAUCUUUUUCCUAGACCAUGUU | 0.482 |
| UAUCGUUCAUAAAUGUGUCUGGGGGCUUCCUUGUUUGGAAAAUAUGGAUAUCGCUUUGUUUUCCUUUGAAAGUAAUUAUAUCUUAAGAACAUAGUAUCAUGAAUGGAGUA | 1.7 |
| CAGGCACUAACCUGGCACCUUUUACUCCAGCUGGUAGAGCUAGAGCUAAUGUGUACAGGUGUCCUGGAGCCCCAGCUUGCUGCCUGGGGUCUUCGGGGGGAGGGGGGCUU | 0.578 |
| CGUUGUGUAGUGAGCACCUUGUUCCCACUUUUGUAGUCCUUUCCGUUCUGACCCGUCAGCAGCCUGCUUCUGACCCAAGAUGGCCUCGUGACUAGACCUGUUUUUAAGGA | 0.326 |
| GGUGUCGGUGUCAUUGUCUCAGCUCAAAGAGCCACCUGCUUCAGAUACCAUGGGCAUGUGCUGAGUGGAUGCACCAGGGGGCAGCACAGCUCCAUGAUUCCCAGUGGGGC | 0.618 |
| AGCUGAGCCGAAUGGAGACAGCUGAGCUGAGGCCUGACUUUUUCAAUAAAACAUUGUGUAGUUCUGGCCUCCUGCUGCCCCGGCUCUGUUUCCCCUGGCGCCAAGAGAAG | 0.195 |
| UCUGAAGAUGAGCUAACAAUGCCUUGUCUAGGACUAUUGGCAAAUCUUUGUCGGCACAAUCUUUCUGUUCAAACACAAAUAAAAACUUUGGUAAGUUGGCUAGUUGUUUC | 0.339 |
| GCCCUUGCCUGGGGAAGCCCACCAGGGGUUCUGGCUUCUGAGGGGCACCUGUCCCUCCUCUCCCCUCACCCUACACUUGUUCCAGCUCUUUGAAAUAGUUUGUGUGAAGG | 0.391 |
| AAGUUCCCGUGAUUGCAGUAAAAAUAUUUACUAUUCUAAAAAAAUGAGAAUUGAAGACUUAGCCAGUCAGAUAAGUUUUUUCAUGAACCCGUUGUGGAAAUUAUUGGAAU | 0.403 |
| CACCUGCCAGACUGGGAUUUUCCUCUCAUCUAAGACACAAAGCGCCUAAGGUGCUCAGCGUCUCAAGAGGACUGGGGUCGAGGCUAAUCUCCAAGCUCCAUCUGCAAAGG | 0.213 |

Some of these lines once more (series 4):
| Change | normalised enrichment score |
| --- | --- |
| Q10A | 0.144 |
| I11A | 0.713 |
| L7A | 0.72 |
| L8A | -0.133 |
| R5A L7A | 0.163 |
| R5K | 0.499 |
| V12A | 0.845 |
| L8F | 0.653 |
